Experimental data collected from several papers.
“And” joins repeats or separate records; there may be more than shown. ± gives the spread as reported.
Ugcg: Ceramide glucosyltransferase (Ugcg, Mus musculus, UniProt O88693)
UniProt O88693, sequence (whole entry, looked up): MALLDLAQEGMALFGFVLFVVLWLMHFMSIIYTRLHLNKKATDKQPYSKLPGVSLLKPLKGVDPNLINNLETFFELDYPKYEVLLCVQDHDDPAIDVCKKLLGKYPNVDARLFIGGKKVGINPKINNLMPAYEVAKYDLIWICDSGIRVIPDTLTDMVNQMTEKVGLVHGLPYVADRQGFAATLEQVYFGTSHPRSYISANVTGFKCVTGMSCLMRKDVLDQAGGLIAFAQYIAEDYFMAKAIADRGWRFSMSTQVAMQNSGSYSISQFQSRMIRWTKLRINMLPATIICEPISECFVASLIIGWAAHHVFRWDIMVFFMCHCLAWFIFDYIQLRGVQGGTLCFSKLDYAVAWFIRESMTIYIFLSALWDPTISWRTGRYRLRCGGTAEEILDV

COc1ccccc1-c1ccncc1C(=O)Nc1nnc(OCc2ccc(Cl)cc2)s1 — colony count (Brca1 Δ11/Δ11 MEFs sgGFP; 20 µM): 10 and 5 and 7
CC(=O)N1CCC[C@H]1C(=O)N[C@@H](CCC(N)=O)C(=O)N[C@@H](C)C(=O)N[C@@H](CC(=O)O)C(=O)COC(=O)c1c(C)cccc1C — cell lysis (THP-1 cells, LPS-primed; pyroptosis, LDH release; 25 µM, LPS 1 µg/mL, 4 h, added: nigericin 5 µM, 2 h): 68.2%
Cc1ncsc1-c1ccc(C(C)NC(=O)C2CC(O)CN2C(=O)C(NC(=O)CCCCCCCCCCN2CCCC(Nc3ncc(Cl)c(Nc4ccccc4S(=O)(=O)C(C)C)n3)C2)C(C)(C)C)cc1 (stereo not shown) — log2 fold change (22Rv1; RNA-seq, item: N4BP3 mRNA; concentration not given; reference: DMSO): -1.42
CCN(C(=O)c1cc(F)ccc1Oc1nncnc1N1CCC2(C1)CN([C@H](CCCN(C)CCOC)C(C)C)C2)C(C)C — GI50 (MG-63; cell growth or viability; 7 days): > 10000 nM
O=S(=O)(N[C@H]1CCO[C@@H](C2c3ccc(F)cc3CCc3cc(F)ccc32)C1)c1ccc(OC(F)(F)F)cc1 — protein level (D425; immunoblot, item: CCR2; concentration not given): decreased
CCc1c(-c2ccc3[nH]ncc3c2)cnc(N)c1-c1ccc(O)cc1 — viability (CHP-212 resistant sublines, USP7 V517F heterozygous; 3.125 µM): 114%
O=S(=O)(Nc1ccc(OC(F)(F)F)cc1)N1CCCC(C2c3ccc(F)cc3CCc3cc(F)ccc32)C1 (stereo not shown) — cell migration (D341; Transwell; 1.5 µM, 24 h): decreased
CC(=O)N[C@@H](Cc1ccc(I)cc1)C(=O)N[C@@H](CCC(=O)O)C(=O)N[C@H](C(=O)N[C@@H](CC(=O)O)C(=O)COC(=O)c1c(C)cccc1C)[C@@H](C)O — cell lysis (THP-1 cells, LPS-primed; pyroptosis, LDH release; 25 µM, LPS 1 µg/mL, 4 h, added: nigericin 5 µM, 2 h): 64.3%
CC12CCCC(NS(=O)(=O)c3ccccn3)(C1)C1CC(C)(C)C1CC2 (stereo not shown) — inhibition (HT-29; cell growth or viability, CCK-8; 10 µM): < 50%
CN(C)CCN1CCN(c2ccc3nc(-c4ccc5nc(-c6ccc(C(F)(F)F)cc6)[nH]c5c4)[nH]c3c2)CC1 — growth percent (OVCAR-8; SRB; 10 µM, 48 h): 53%
CC[C@H](NC(=O)[C@H](CC(C)C)NC(=O)[C@H](CC(=O)O)NC(C)=O)C(=O)N[C@@H](CC(=O)O)C(=O)COC(=O)c1c(C)cccc1C — cell lysis (THP-1 cells, LPS-primed; pyroptosis, LDH release; 25 µM, LPS 1 µg/mL, 4 h, added: nigericin 5 µM, 2 h): 91.3% and 99%
Cn1ncc2cc(-c3cncc(Cl)c3N3CCC4(CCNC4=O)CC3)ccc21 — log2 fold change (LS174T; gene expression, microarray, item: PDE4D mRNA; concentration not given, 24 h; reference: untreated cells): 2.33
Cc1ccccc1S(=O)(=O)NC12CCCC(C)(CCC3C1CC3(C)C)C2 (stereo not shown) — inhibition (HT-29; cell growth or viability, CCK-8; 10 µM): < 50%
COc1ccc(-c2ccc(COCCCCCN3C[C@H](O)[C@@H](O)[C@H](O)[C@H]3CO)cc2)cc1 — IC50 (Ugcg; enzyme activity, inhibitor, fluorescence): 25 nM
COc1ccccc1CNC[C@](O)(COCc1ccccc1)[C@@H]1CC[C@@H](C)C[C@H]1OCc1ccccc1 — inhibition (A2780; cell growth or viability, MTT; 30 µM, 72 h): 90.2%
Cc1c(Cl)cccc1Nc1ccccc1C(=O)[Se]CC(=O)Nc1cccc(C(F)(F)F)c1 — mean growth percent (NCI60 leukemia subpanel; cell growth; 10 µM, 48 h, one-dose): -73.7%
Cc1n[nH]c(C)c1CCCOc1cc(C(=O)NCCCCC(NC(=O)CN2CCN(CC(=O)[O-])CCN(CC(=O)[O-])CCN(CC(=O)[O-])CC2)C(=O)NCC2CCC(C(=O)NC(Cc3ccc4ccccc4c3)C(=O)NCCCCC(NC(=O)NC(CCC(=O)O)C(=O)O)C(=O)O)CC2)ccc1F.[177Lu+3] (stereo not shown) — uptake (22Rv1; 24 h; reference: added dose): 8.63 ± 0.18%
OC[C@@H]1[C@@H](O)[C@H](O)[C@@H](O)CN1CCCCCOCc1ccc(-c2ccc3c(c2)OCCCO3)cc1 — IC50 (Ugcg; enzyme activity, inhibitor, fluorescence): 25 nM
CCCCCCc1cccc([C@H](O)C[C@H](CO)NC(=O)CCCCCOc2ccc3ccccc3c2)c1 — sphingomyelin level (HeLa; CERT activity, HPLC-MS/MS lipidomics, item: sphingomyelin 24; 1 µM, 24 h, not cell-number normalised): 61000 pmol/sample and 35800 pmol/sample and 58300 pmol/sample
CCC(=CCc1c(O)cc2c(c1O)C(=O)CC(c1ccc(O)c(OC)c1)O2)CC (stereo not shown) — inhibition (HeLa; cell growth or viability, MTT; 3.125 µM, 48 h): 12.8%
COC1CCN(C(=O)/C=C/c2nn(Cc3cccc(C(F)(F)F)c3)c3nc(NCc4ccccc4)ncc23)CC1 — EC50 (OE33; cell growth or viability, resazurin; 5 days): > 30000 nM
CCC(=CCc1c(O)cc2c(c1O)C(=O)CC(c1ccccc1O)O2)CC (stereo not shown) — inhibition (HeLa; cell growth or viability, MTT; 1.875 µM, 48 h): 3.53%
CNS(=O)(=O)Nc1nccc(Cc2c(C)c3ccc(Oc4ncccc4F)cc3oc2=O)c1F — IC50 (P116; cell viability, CellTiter-Glo; 7 days): > 1000 nM
O=C(COCC(F)F)Nc1ccc([C@H]2[C@@H](F)[C@@H](F)C[C@@H](F)[C@H]2F)cc1 — hepatic clearance (liver microsome stability; human liver microsomes; 1 µM, without NADPH): 18 mL/min/kg
CCCS(=O)(=O)NC12CCCC(C)(CCC3C1CC3(C)C)C2 (stereo not shown) — inhibition (HT-29; cell growth or viability, CCK-8; 10 µM): < 50%
COCCNc1nc(-c2nccn2C)nc2sc(-c3cccc(OC)c3Cl)c(-c3ccccc3)c12 — cAMP level (BxPC-3; cAMP-Glo; 1.0 µM, 1 h, added: isoprenaline 15 min): no effect
CN1CCCNC(=O)c2cccc(c2)C(=O)NCCCN(C)CCCNc2cccc3c2C(=O)c2cccc(c2C3=O)NCCC1 — log2 fold change (SAS; RNA-Seq, item: BAZ1B mRNA; 1 µM, 6 h; reference: untreated cells): -0.826
COc1ccc(-c2ccc(C3CCCCC3)cc2)cc1OC — hepatic clearance (hepatocyte stability; cryopreserved human hepatocytes; 1 µM): 6.2 mL/min/kg
C=CCc1c(O)cc2c(c1O)C(=O)CC(c1ccc(O)cc1)O2 (stereo not shown) — inhibition (HeLa; cell growth or viability, MTT; 50 µM, 48 h): 15.1%
COc1cc(N2CCN(C(=O)C3CCCN3)CC2)ccc1Nc1ncc(Cl)c(Nc2ccccc2P(C)(C)=O)n1 (stereo not shown) — early apoptotic cells (Ba/F3 EML4-ALK; flow cytometry; concentration not given, 3 h): 4.14% and 4.04% and 4.28%
CC(=O)Oc1ccccc1C(=O)[Se]CC(=O)Nc1cccc(C(F)(F)F)c1 — mean growth percent (NCI60 leukemia subpanel; cell growth; 10 µM, 48 h, one-dose): 17.8%
CCC(=CCc1c(O)cc2c(c1O)C(=O)CC(c1ccc(O)cc1OC)O2)CC (stereo not shown) — inhibition (HeLa; cell growth or viability, MTT; 1.563 µM, 48 h): 13.2%
Cc1ccc2c(Cn3ccnc3)cc(=O)oc2c1C — calcium mobilisation signal (COS-7 (untransfected); 500 µM, unit not given; reference: 3 µM ionomycin): 0.91 ± 1.89
N#C[C@@H]1CCCN1C(=O)CNC(=O)c1ccnc2ccc(OCCCN3CCN(C(=O)CCc4ccc5c(c4)CN4CCN(Cc6cc(CCC(=O)O)ccc6O)CC(=O)[O][Al-]([18F])([O]C(=O)C4)[O]5)CC3)cc12 (stereo partly shown) — internalized fraction (HT1080 cells expressing human FAP; 30 min, 37 °C): 74.3 ± 1.9%
CCC(=CCc1c(O)cc2c(c1O)C(=O)CC(c1cccc(O)c1)O2)CC (stereo not shown) — inhibition (HeLa; cell growth or viability, MTT; 0.781 µM, 48 h): 2.32%
CC12CCCC(NS(=O)(=O)c3ccc(O)cc3)(C1)C1CC(C)(C)C1CC2 (stereo not shown) — inhibition (HT-29; cell growth or viability, CCK-8; 10 µM): < 50%
CC(=O)N[C@@H](CC(=O)O)C(=O)N[C@@H](CO)C(=O)N[C@@H](C)C(=O)N[C@@H](CC(=O)O)C(=O)COC(=O)c1c(C)cccc1C — cell lysis (THP-1 cells, LPS-primed; pyroptosis, LDH release; 25 µM, LPS 1 µg/mL, 4 h, added: nigericin 5 µM, 2 h): 96.8%
CC(C)c1ccc(N(C)c2ccc3c(c2)OCC[C@H]3CNc2cnccc2C(=O)O)cc1 — IC50 (NCI-H1703; cell growth or viability, ATP luminescence; 7 days): 8.05 nM
C[C@@H]1CC[C@@H]([C@@](O)(CNCc2ccccc2F)COCc2ccccc2)[C@H](OCc2ccccc2)C1 — inhibition (HeLa; cell growth or viability, MTT; 30 µM, 72 h): 96.2%
COC1CCN(C(=O)/C=C/c2nn(Cc3cccc(C(F)(F)F)c3)c3nc(NC(C)(C)C)ncc23)CC1 — EC50 (FLO-1; cell growth or viability, resazurin; 5 days): 12700 nM
Cc1cc(Cl)cc(-c2ccnc3cc(CN4C(=O)C5C(C4=O)C5(C)C)sc23)c1C[C@@H]1CNCCO1 (stereo partly shown) — apoptotic cells (early plus late) (CHP-212 resistant cells (pooled); annexin V-PI flow cytometry; 0.1 µM, 48 h): 6.69% and 13% and 15.5%
C[C@@H]1CC[C@@H]([C@@](O)(CNCc2cccc(F)c2)COCc2ccccc2)[C@H](OCc2ccccc2)C1 — inhibition (HeLa; cell growth or viability, MTT; 30 µM, 72 h): 98.1%
O=C(Nc1ccc(Sc2ccc3c(/C=C/c4ccccn4)n[nH]c3c2)cc1)c1ccco1 — GI50 (BaF3; cell growth or viability, CCK-8): 3050 nM
CC12CCCC(NS(=O)(=O)c3ccc(Br)cc3)(C1)C1CC(C)(C)C1CC2 (stereo not shown) — inhibition (HT-29; cell growth or viability, CCK-8; 50 µM): 15.8%
O=S(=O)(N[C@H]1CCO[C@@H](C2c3ccccc3CCc3ccccc32)C1)c1ccc(OC(F)(F)F)cc1 — protein level (D425; immunoblot, item: CCL2; concentration not given): decreased
COc1ccc(CNC[C@@](O)(COCc2ccccc2)[C@@H]2CC[C@@H](C)C[C@H]2OCc2ccccc2)cc1 — inhibition (HeLa; cell growth or viability, MTT; 30 µM, 72 h): 95.4%
CC(CCC(=O)OCc1cccc(CN(C(=O)OCc2ccc(B3OC(C)(C)C(C)(C)O3)cc2)[c-]2cccc2)c1)C1CCC2C3C(O)CC4CC(O)CCC4(C)C3CC(O)C12C.[Fe+2].c1cc[cH-]c1 (stereo not shown) — mRNA level (A2780; qPCR, item: CHOP; 5 µM, 24 h, unit not given; reference: untreated): 1100 ± 487
CCN(CC)CC(=O)Nc1cccc(-n2cc(-c3ccc4ccc(-c5cn(-c6cccc(NC(=O)CN(CC)CC)c6)nn5)cc4c3)nn2)c1 — fold regulation (RCC4; PCR array, item: EGF; 5 x IC50, 6 h, normoxia; reference: untreated): 1.59
C=CC(=O)N1CCCC(n2c(=O)c3ncccc3n(Cc3ccc(Oc4ccccc4)cc3)c2=O)C1 (stereo not shown) — viable cells (OCI-LY19; annexin V/PI flow cytometry; 100 nM, 72 h, Q4 quadrant): 83.7%

Excerpt of the above:
COC1CCN(C(=O)/C=C/c2nn(Cc3cccc(C(F)(F)F)c3)c3nc(NC(C)(C)C)ncc23)CC1 — EC50 (FLO-1; cell growth or viability, resazurin; 5 days): 12700 nM
Cc1cc(Cl)cc(-c2ccnc3cc(CN4C(=O)C5C(C4=O)C5(C)C)sc23)c1C[C@@H]1CNCCO1 (stereo partly shown) — apoptotic cells (early plus late) (CHP-212 resistant cells (pooled); annexin V-PI flow cytometry; 0.1 µM, 48 h): 6.69% and 13% and 15.5%
C[C@@H]1CC[C@@H]([C@@](O)(CNCc2cccc(F)c2)COCc2ccccc2)[C@H](OCc2ccccc2)C1 — inhibition (HeLa; cell growth or viability, MTT; 30 µM, 72 h): 98.1%
O=C(Nc1ccc(Sc2ccc3c(/C=C/c4ccccn4)n[nH]c3c2)cc1)c1ccco1 — GI50 (BaF3; cell growth or viability, CCK-8): 3050 nM
